Published values collected from several papers.
Lines come from different studies, so protocols differ.
Organism: Enterococcus faecium

CCCCCCCCCCCCCC(=O)N[C@H](CCN)C(=O)N[C@H](C(=O)N[C@@H](CCN)C(=O)N[C@@H](CC(C)C)C(=O)N[C@H]1CCNC(=O)[C@H](CC(=O)O)NC(=O)[C@H](C(C)C)NC(=O)[C@@H](Cc2ccc(O)cc2)NC(=O)[C@H](CCN)NC(=O)[C@H](CC(C)C)NC(=O)[C@@H](Cc2ccccc2)NC1=O)[C@@H](C)O
MIC (broth microdilution; BNCC 186301): 2 µg/mL

COc1ccc2nc(C)cc(OCC(=O)Nc3cc(C)cc(C)c3)c2c1
MIC (microbial growth, broth dilution; X7501): > 64 µM

C=C(NC(=O)C(=C)NC(=O)c1csc(C2=NC3c4csc(n4)C4NC(=O)c5csc(n5)C(C(C)(O)C(C)O)NC(=O)C5CSC(=N5)C(=CC)NC(=O)C(C(C)O)NC(=O)c5csc(n5)C3(CC2)NC(=O)C(C)NC(=O)C(=C)NC(=O)C(C(C)CC)NC2C=Cc3c(C(C)O)cc(nc3C2O)C(=O)OC4C)n1)C(N)=O (centres unmarked)
MIC (broth microdilution; ATCC 12952 VRE; 18 h, 37 °C): > 5 µg/mL

CC1=C[C@@]2(C)C(=C(C)[C@H]3[C@@H]4C[C@H](C)C[C@H](C)[C@H]4[C@H]4Oc5ccc(cc5)C[C@]5(O)NC(=O)[C@]6(O[C@H]65)C(=O)[C@@H]2[C@@H]43)[C@H]1C
MIC (microbial growth, broth dilution; ATCC700221; drug-resistant strain): 3.1 µM

Cc1ccc2nc(C)c(C(=O)NCc3cccs3)n2c1
MIC (microbial growth, broth dilution; X7501): > 64 µM

CN1C(=O)[C@@H]2NC(=O)[C@@H]3NC(=O)[C@@H](c4ccc(O)cc4)NC(=O)[C@H](NC(=O)C(NCc4ccsc4)c4ccc(O)cc4)Cc4c[nH]c5cc(ccc45)-c4cc3cc(c4O)Oc3ccc(cc3)C[C@H]1C(=O)N[C@@H](C(=O)O)c1ccc(O)c(c1)Oc1ccc2cc1 (some centres unmarked)
MIC (brain heart infusion medium): 8 µg/mL

Cc1ccc2nc(C(F)(F)F)c(C(=O)NCc3cccc(Cl)c3)n2c1
MIC (microbial growth, broth dilution; X7501): > 64 µM

CN(C)CCCNC(=O)[C@@H]1NC(=O)[C@@H]2Cc3ccc(cc3)Oc3cc4cc(c3O)-c3ccc5c(c[nH]c5c3)C[C@@H](NC(=O)C(NC(=O)CCCCCN)c3ccc(O)cc3)C(=O)N[C@H](c3ccc(O)cc3)C(=O)N[C@H]4C(=O)N[C@@H](C(=O)N2C)c2ccc(cc2)Oc2cc1ccc2O (some centres unmarked)
MIC (WCC 0502, VRE-A): 1 to 2 µg/mL

CC1=C[C@@H](C)[C@H]2[C@@H]3C(=O)C(Cl)(Cl)C(=O)[C@H](C)C(=O)O[C@@H](C)/C=C/C=C\[C@@H](C)[C@@H]3C=C[C@@H]2C1
MIC (microbial growth, broth dilution; VRE; drug-resistant strain): 0.025 µg/mL

CN1C(=O)[C@@H]2NC(=O)[C@@H]3NC(=O)[C@@H](c4ccc(O)cc4)NC(=O)[C@H](NC(=O)C(NCc4cc(O)cc(O)c4)c4ccc(O)cc4)Cc4c[nH]c5cc(ccc45)-c4cc3cc(c4O)Oc3ccc(cc3)C[C@H]1C(=O)N[C@@H](C(=O)O)c1ccc(O)c(c1)Oc1ccc2cc1 (some centres unmarked)
MIC (brain heart infusion medium): 16 µg/mL

CC[P+](CC)(CC)[Au-][S][C@@H]1O[C@H](COC(C)=O)[C@@H](OC(C)=O)[C@H](OC(C)=O)[C@H]1NC(C)=O
MIC (ATCC 700221): 0.09 µM
